Experimental data gathered from unrelated publications.
Protocols differ between the studies behind these lines. Several values in a cell are separate wells, animals, samples, runs or records. ± marks the error that the study gave. Values after ≈ are worked out from the molar mass of the structure shown.
Sequence of UniProt Q96RG2 (whole entry, looked up): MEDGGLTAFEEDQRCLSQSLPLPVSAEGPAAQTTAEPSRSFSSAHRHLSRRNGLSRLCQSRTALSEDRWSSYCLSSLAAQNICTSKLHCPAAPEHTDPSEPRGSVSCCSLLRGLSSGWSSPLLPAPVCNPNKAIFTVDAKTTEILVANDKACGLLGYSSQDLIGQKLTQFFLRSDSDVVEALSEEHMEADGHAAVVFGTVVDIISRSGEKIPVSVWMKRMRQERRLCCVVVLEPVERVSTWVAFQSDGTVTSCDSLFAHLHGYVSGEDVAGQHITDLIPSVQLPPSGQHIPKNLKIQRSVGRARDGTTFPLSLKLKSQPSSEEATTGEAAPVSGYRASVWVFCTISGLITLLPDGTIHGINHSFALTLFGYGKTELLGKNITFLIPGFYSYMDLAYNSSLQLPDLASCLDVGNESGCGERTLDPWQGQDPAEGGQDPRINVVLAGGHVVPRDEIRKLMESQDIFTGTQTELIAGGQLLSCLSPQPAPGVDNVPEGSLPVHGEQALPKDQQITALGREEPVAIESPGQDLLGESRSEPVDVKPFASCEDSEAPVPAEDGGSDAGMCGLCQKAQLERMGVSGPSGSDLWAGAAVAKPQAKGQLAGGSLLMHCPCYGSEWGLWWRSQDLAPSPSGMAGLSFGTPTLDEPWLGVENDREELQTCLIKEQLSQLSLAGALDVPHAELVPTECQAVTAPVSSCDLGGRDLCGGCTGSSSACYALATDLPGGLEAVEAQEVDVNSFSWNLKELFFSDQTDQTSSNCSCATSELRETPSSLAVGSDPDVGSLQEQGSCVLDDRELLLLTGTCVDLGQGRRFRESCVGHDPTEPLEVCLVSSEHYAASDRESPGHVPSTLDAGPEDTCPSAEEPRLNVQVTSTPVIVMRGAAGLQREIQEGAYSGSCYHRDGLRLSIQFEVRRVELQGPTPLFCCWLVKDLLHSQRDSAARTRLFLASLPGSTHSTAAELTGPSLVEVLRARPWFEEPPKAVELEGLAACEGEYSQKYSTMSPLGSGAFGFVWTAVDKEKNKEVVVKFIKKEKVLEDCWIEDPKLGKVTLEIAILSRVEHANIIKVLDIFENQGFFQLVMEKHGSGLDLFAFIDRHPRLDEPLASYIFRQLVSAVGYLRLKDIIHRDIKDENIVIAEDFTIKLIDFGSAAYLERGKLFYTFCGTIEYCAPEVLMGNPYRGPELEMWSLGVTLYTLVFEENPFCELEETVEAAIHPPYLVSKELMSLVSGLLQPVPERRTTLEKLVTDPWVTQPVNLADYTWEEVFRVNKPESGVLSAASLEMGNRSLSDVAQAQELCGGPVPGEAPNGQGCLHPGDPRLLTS

CN(C(=O)c1ccn2ncc(-c3ccc(C(N)=O)cc3)c2c1)c1ccc(C#N)cn1 — faecal Nluc luminescence (Cryptosporidium parvum; UGA1 Nluc, IFN-gamma knockout C57BL/6 mice, faeces; oral, 10 mg/kg daily, 144 h post infection, treatment days 3-9; higher means more parasites): 14 a.u. and 30 a.u. and 38 a.u. and 179 a.u. and 101 a.u.
CC[C@H](C)[C@H](NC(=O)[C@H](CO)NC(=O)[C@H](Cc1ccc(O)cc1)NC(=O)[C@H](Cc1ccc(O)cc1)NC(=O)[C@H](CC(N)=O)NC(=O)CNC(=O)[C@H](CO)NC(=O)[C@H](Cc1ccc(O)cc1)NC(=O)[C@H](CO)NC(=O)[C@H](CO)NC(=O)[C@H](CC(N)=O)NC(=O)COCCOCCNC(=O)CN1CCN(CC(=O)O)CCN(CC(=O)O)CCN(CC(=O)O)CC1)C(=O)N[C@@H](CC(C)C)C(N)=O [copper-64 labelled] — tumour uptake (dynamic PET; mouse, tamoxifen-induced PDAC, tumor; intravenous, 0.1 µg/mouse, 2.5 min): 16.2 %ID/mL
CC(C)[C@H]1NC(=O)[C@H](Cc2ccccc2)NC(=O)[C@@H](C(C)C)NC(=O)[C@@H](C)NC(=O)[C@H](CO)NC(=O)[C@@H](Cc2c(-c3ccc(-c4ccc5ccccc5c4)cc3)[nH]c3ccccc23)NC(=O)[C@@H](CO)NC1=O — MIC90 (Vibrio vulnificus; broth dilution): > 50 µM
CCOC(=O)C1(Cc2ccc(C#N)cc2F)Oc2cc(F)ccc2N(Cc2ccc(C#N)cc2F)C1=O (stereo not drawn) — inhibition (Amaranthus retroflexus; fresh weight, greenhouse postemergence; postemergence, 150 g ai/ha, 21 days): 67.6 ± 3.92%
CCCCCCCCCCCCCC(=O)N[C@H]1C(=O)N[C@@H](CN)C(=O)N[C@@H](CO)C(=O)N[C@@H](Cc2ccc(O)cc2)C(=O)O[C@H]1C — MIC (Staphylococcus aureus; SH1000; no lipid): 2 mg/L (≈ 3.09 µM)
CC[C@H](C)CCCCC(=O)N[C@@H](CCN)C(=O)N[C@H](C(=O)N[C@@H](CCN)C(=O)N[C@H]1CCNC(=O)[C@H]([C@@H](C)O)NC(=O)[C@H](CCN)NC(=O)[C@H](CCN)NC(=O)[C@H](CC(C)C)NC(=O)[C@@H](CC(C)C)NC(=O)[C@H](CCN)NC1=O)[C@@H](C)O — MIC fold change (Escherichia coli; daily serial passaging; ATCC 8739; highest sub-MIC, 14 days; reference: initial MIC): 1.68
CCOC(=O)C1(Cc2ccccc2C#N)Oc2cc(F)ccc2N(Cc2ccccc2C#N)C1=O (stereo not drawn) — inhibition (Amaranthus retroflexus; fresh weight, greenhouse postemergence; postemergence, 150 g ai/ha, 21 days): 68.2 ± 4.15%
O=C(CCN(CCC(=O)N[C@@H](Cc1c[nH]c2ccccc12)C(=O)O)C(=O)CCN(CCC(=O)N(CCC(=O)N[C@@H](Cc1c[nH]c2ccccc12)C(=O)O)CCC(=O)N[C@@H](Cc1c[nH]c2ccccc12)C(=O)O)C(=O)CCC(CCC(=O)N(CCC(=O)N(CCC(=O)N[C@@H](Cc1c[nH]c2ccccc12)C(=O)O)CCC(=O)N[C@@H](Cc1c[nH]c2ccccc12)C(=O)O)CCC(=O)N(CCC(=O)N[C@@H](Cc1c[nH]c2ccccc12)C(=O)O)CCC(=O)N[C@@H](Cc1c[nH]c2ccccc12)C(=O)O)(CCC(=O)N(CCC(=O)N(CCC(=O)N[C@@H](Cc1c[nH]c2ccccc12)C(=O)O)CCC(=O)N[C@@H](Cc1c[nH]c2ccccc12)C(=O)O)CCC(=O)N(CCC(=O)N[C@@H](Cc1c[nH]c2ccccc12)C(=O)O)CCC(=O)N[C@@H](Cc1c[nH]c2ccccc12)C(=O)O)[N+](=O)[O-])N[C@@H](Cc1c[nH]c2ccccc12)C(=O)O — EC50 (human adenovirus 2; viral replication; HEL cells): 20 ± 0.05 µM
Cc1cc(Oc2nc(N3CC[C@@H](c4ccncc4)C3)ncc2F)[nH]n1 — IC50 (MDA-MB-436; cell growth or viability): 45.7 µM
NCCO.O=C(O)C(Cl)Cl — inhibition (Amaranthus retroflexus; herbicidal activity; 15 mg/mL, 21 days, pre-emergence greenhouse): 0%
CON(C(=O)c1cn(C)nc1C(F)F)C(C)Cc1c(Cl)cc(Cl)cc1Cl (stereo not drawn) — EC50 (Blumeria graminis; Triticum aestivum; in vivo wheat powdery mildew): 0.992 mg/L
CC(C)CCCCCCCCC/C=C/C(=O)N[C@@H](CC(=O)O)C(=O)N[C@H]1CNC(=O)[C@@H]2CCCN2C(=O)[C@H](C(C)C)NC(=O)[C@@H](CN)NC(=O)CNC(=O)[C@H](CC(=O)O)NC(=O)CNC(=O)[C@H](CC(=O)O)NC(=O)[C@H](CC(=O)O)NC(=O)[C@H]2CCCCN2C1=O — MIC (Enterococcus; broth microdilution; VRE 155, Mueller-Hinton broth, Mg2+ 10 mg/L; 16 h, with: Ca2+ 0 mM): > 128 mg/L
[O-][N+]1=C(c2ccc(Cl)cc2)C2=NCCCCN2c2ccccc21 — MIC90 (Bacteroides fragilis): 2 mg/L
Cc1cc(Cl)cc(S(C)=NC#N)c1NC(=O)c1cc(Br)nn1-c1ncccc1Cl (stereo not drawn) — mortality (Spodoptera litura; leaf-dip; third instar larvae; 6.25 ppm, 96 h): 100%
COc1ccccc1-c1ccncc1C(=O)Nc1nnc(OCc2ccc(Cl)cc2)s1 — colony survival (DLD-1 parental (BRCA2 WT); 8 µM, average of 3 runs; reference: untreated): 98.6%
COc1ccccc1-c1n[nH]c2nc(NC3CCN(C(=O)Cc4ccc(F)cc4F)CC3)ncc12 — relative abundance (bead binding, competition bead pull-down, refers to: LINJ.33.0600; Leishmania donovani extract; 10 µM; reference: vehicle): 0.95
Cc1ccc(N2CC3CCC(C2)N3C)cc1C(=O)N[C@H](C)c1cc(-c2cnn(C)c2)nc2ccccc12 — viability (African green monkey cells; 3.906 µM): 97.1%
CS(C)(=O)=Nc1ccc(-c2ccc(-c3nc4cc(O[C@@H]5CO[C@H]6[C@@H]5OC[C@H]6O)[nH]c4cc3F)cc2)cc1 — inhibition (DYRK1A (Homo sapiens, UniProt Q13627); enzyme activity, inhibitor; 10 µM): 16%
[O-][N+]1=C(c2ccc(Cl)cc2)C2=NCCCN2c2ccccc21 — MIC50 (Bacteroides fragilis; microbial growth): 1 mg/L (≈ 3.21 µM)
CC(C)CC(C(=O)N1CC2(CC1C#N)C(=O)Nc1ccccc12)N(C)C(=O)c1cc2c(F)cc(F)c(F)c2[nH]1 (stereo not drawn) — Hill slope (Caspase-7 (CASP7, Homo sapiens, UniProt P55210)): -1.17
CCCCCCCCC=CCCCCCCCCNC(=O)C(N)Cc1ccc(OP(=O)(O)COC(CO)Cn2ccc(N)nc2=O)cc1 (stereo not drawn) — EC50 (varicella-zoster virus; cytopathic effect; HFF, Ellen; 14 d): 0.004 µM
O=CCNCCOn1c(=O)n(OCCNCCO)c(=O)n(OCCNCCOn2c(=O)n(OCCNCCO)c(=O)n(OCCNCCO)c2=O)c1=O — MLC (Aspergillus fumigatus; broth microdilution): 16 ± 2 mg/L (≈ 20.8 µM)
COc1ccccc1-c1n[nH]c2nc(N[C@H]3CC[C@H](NS(=O)(=O)CC(C)C)CC3)ncc12 — relative abundance (bead binding, competition bead pull-down, refers to: LINJ.28.2610; Leishmania donovani extract; 10 µM; reference: vehicle): 0.99
CC(C)(C)C(=O)OCOP(=O)(OCOC(=O)C(C)(C)C)C1CCCN(O)C1=O (stereo not drawn) — log TGI (HCC 2998): -5.25 log M
Cc1ccc(N2CCN(C)CC2)cc1C(=O)N[C@H](C)c1cc(-c2cnn(C)c2)nc2ccccc12 — viability (Vero E6; 250 µM): 0.136% and 0.952%
O=C1NC(=O)c2c1c1cc(F)c[n+]3c1c1c2c2cc(O)ccc2[n]1[Ru-4]312([N]=C=S)[S+]3CC[S+]1CC[S+]2CC3 (stereo not drawn) — remaining activity (PASK (Homo sapiens, UniProt Q96RG2); enzyme activity; 100 nM, human enzyme, with: 10 µM ATP; reference: untreated): 68%
COc1ccc(Cn2c3cc(=O)n(Cc4cccc(Cl)n4)c(C)c3c(=O)n2-c2ccccn2)cc1 — normalized viral replication (human respiratory syncytial virus; recombinant reporter virus; concentration not given, scale 0 to 100, with: adenosine 300 µM): 0
CC(C)C[C@H](NC(=O)[C@@H](N)CO)C(=O)N[C@@H](Cc1c[nH]c2ccccc12)C(=O)N[C@@H](CCC(=O)O)C(=O)N[C@@H](CC(N)=O)C(=O)N[C@@H](Cc1ccccc1)C(=O)N[C@@H](CCCCN)C(N)=O — geometric mean MIC (all tested microorganisms): 256 µM
CCOC(=O)C1(Cc2cccc(C(C)C)c2)Oc2cc(F)ccc2N(Cc2cccc(C(C)C)c2)C1=O (stereo not drawn) — inhibition (Amaranthus retroflexus; fresh weight, greenhouse postemergence; postemergence, 150 g ai/ha, 21 days): 56.3 ± 4.77%
CC1=C[C@@H](C)[C@H]2[C@@H]3C(=O)C(Cl)(Cl)C(=O)[C@H](C)C(=O)O[C@@H](C)/C=C/C=C\[C@@H](C)[C@@H]3C=C[C@@H]2C1 — MIC fold change (Staphylococcus aureus; Newman compound-resistant mutant Mt7; concentration not given; reference: parent strain): 8
NCCc1cccc(-c2nc(=O)c3ccccc3s2)n1 — EC50 (Acinetobacter baumannii; growth inhibition; AR Bank 0288, XDR; 5% CO2): > 100 µM
CC(O)CN(CC(C)O)CC(C)O.O=C(O)C(Cl)Cl (stereo not drawn) — inhibition (Amaranthus retroflexus; herbicidal activity; 15 mg/mL, 21 days, pre-emergence greenhouse): 0%
CN(C)S(=O)(=O)c1ccc(S(=O)(=O)N2CCC(n3c(=O)[nH]c4ccccc43)CC2)cc1 — streptomycin concentration (Escherichia coli; Keio wild type; concentration not given, 96 h): 3.92 µg/mL
CC(C)[C@H]1NC(=O)[C@H](Cc2ccccc2)NC(=O)[C@@H](C(C)C)NC(=O)[C@@H](C)NC(=O)[C@H](CO)NC(=O)[C@@H](Cc2c(-c3ccc(-c4ccccc4)c(F)c3)[nH]c3ccccc23)NC(=O)[C@@H](CO)NC1=O — MIC90 (Vibrio vulnificus; broth dilution): > 50 µM
NCCC[C@@H]1NC(=O)[C@@H](CCCN)NC(=O)[C@H](Cc2ccccc2)NC(=O)[C@@H](Cc2cccc(F)c2)NC(=O)[C@H](Cc2ccccc2)NC(=O)[C@@H](CCCN)NC1=O — IC90 (Balamuthia mandrillaris; parasite growth, ATP luminescence): > 20 µM
CCc1nn(C)c2nc(-c3ccc(C(=O)O)cc3)nc(NCc3ccccc3)c12 — parasite number (Cryptosporidium parvum; HCT-8; 6 x EC90, 72 h; reference: DMSO control): 44% and 40.4% and 35% and 28.1%
C[N+]1=C2C(c3ccccc3)=[N+]([O-])c3ccccc3N2CCC1 — MIC50 (Bacteroides fragilis; microbial growth): 2 mg/L
FC(F)(F)c1cccc(CNc2nc(NC3CCN(Cc4ccccc4)CC3)c3nc[nH]c3n2)c1 — mRNA fold change (Cryptococcus neoformans; RNA-seq, refers to: YMR1 (CNAG_00390); 48 µg/mL, 3 h; reference: untreated): 1.54
Cc1cc(C(=O)Nc2nc3cccc(C)c3n2[C@H]2CCCCN(C(=O)/C=C/CN(C)C)C2)ccn1 — survival (Trypanosoma brucei brucei; 2T1 CLK1 overexpressing; 1.25 µM, compound pretreated; reference: maximum): 185% and 206% and 187% and 162%
O=C1NC2(CC2)COc2ncc(F)cc2[C@H]2COCCN2c2ccn3ncc1c3n2 — serum total protein (Sprague-Dawley rat, female, serum; oral, 5 mg/kg/day, end of recovery, 4-week subacute toxicity): 63.6 ± 4.3 g/L
COc1ccc(C2=[N+]([O-])c3ccccc3N3CC(C)(C)CN=C23)cc1 — MIC90 (Bacteroides fragilis): 0.5 mg/L
CCOC(=O)C1(Cc2c(F)cccc2F)Oc2cc(F)ccc2N(Cc2c(F)cccc2F)C1=O (stereo not drawn) — inhibition (Amaranthus retroflexus; fresh weight, greenhouse postemergence; postemergence, 150 g ai/ha, 21 days): 65.4 ± 2.94%

For quick reference, copied from above:
CC(C)C[C@H](NC(=O)[C@@H](N)CO)C(=O)N[C@@H](Cc1c[nH]c2ccccc12)C(=O)N[C@@H](CCC(=O)O)C(=O)N[C@@H](CC(N)=O)C(=O)N[C@@H](Cc1ccccc1)C(=O)N[C@@H](CCCCN)C(N)=O — geometric mean MIC (all tested microorganisms): 256 µM
CCOC(=O)C1(Cc2cccc(C(C)C)c2)Oc2cc(F)ccc2N(Cc2cccc(C(C)C)c2)C1=O (stereo not drawn) — inhibition (Amaranthus retroflexus; fresh weight, greenhouse postemergence; postemergence, 150 g ai/ha, 21 days): 56.3 ± 4.77%
CC1=C[C@@H](C)[C@H]2[C@@H]3C(=O)C(Cl)(Cl)C(=O)[C@H](C)C(=O)O[C@@H](C)/C=C/C=C\[C@@H](C)[C@@H]3C=C[C@@H]2C1 — MIC fold change (Staphylococcus aureus; Newman compound-resistant mutant Mt7; concentration not given; reference: parent strain): 8
NCCc1cccc(-c2nc(=O)c3ccccc3s2)n1 — EC50 (Acinetobacter baumannii; growth inhibition; AR Bank 0288, XDR; 5% CO2): > 100 µM
CC(O)CN(CC(C)O)CC(C)O.O=C(O)C(Cl)Cl (stereo not drawn) — inhibition (Amaranthus retroflexus; herbicidal activity; 15 mg/mL, 21 days, pre-emergence greenhouse): 0%
